Measurements gathered from unrelated publications.
Numbered parts are unrelated; each lists some results of a single study. “And” joins repeats or separate records; there may be more than shown.
Chain of UniProt P11712 (whole entry, looked up): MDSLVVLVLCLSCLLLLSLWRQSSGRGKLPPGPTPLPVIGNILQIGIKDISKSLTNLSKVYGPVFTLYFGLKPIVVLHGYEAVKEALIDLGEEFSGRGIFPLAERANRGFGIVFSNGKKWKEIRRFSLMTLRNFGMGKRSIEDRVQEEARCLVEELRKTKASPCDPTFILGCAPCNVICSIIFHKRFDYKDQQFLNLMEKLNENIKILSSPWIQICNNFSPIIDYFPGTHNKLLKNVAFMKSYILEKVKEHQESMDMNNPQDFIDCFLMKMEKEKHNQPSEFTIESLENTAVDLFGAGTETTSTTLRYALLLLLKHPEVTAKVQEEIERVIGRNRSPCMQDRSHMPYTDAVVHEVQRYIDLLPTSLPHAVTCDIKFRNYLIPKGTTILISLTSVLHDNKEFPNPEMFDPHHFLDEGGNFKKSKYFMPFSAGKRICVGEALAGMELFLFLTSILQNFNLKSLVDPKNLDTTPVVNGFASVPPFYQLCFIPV
Chain of UniProt P05177 (whole entry, looked up): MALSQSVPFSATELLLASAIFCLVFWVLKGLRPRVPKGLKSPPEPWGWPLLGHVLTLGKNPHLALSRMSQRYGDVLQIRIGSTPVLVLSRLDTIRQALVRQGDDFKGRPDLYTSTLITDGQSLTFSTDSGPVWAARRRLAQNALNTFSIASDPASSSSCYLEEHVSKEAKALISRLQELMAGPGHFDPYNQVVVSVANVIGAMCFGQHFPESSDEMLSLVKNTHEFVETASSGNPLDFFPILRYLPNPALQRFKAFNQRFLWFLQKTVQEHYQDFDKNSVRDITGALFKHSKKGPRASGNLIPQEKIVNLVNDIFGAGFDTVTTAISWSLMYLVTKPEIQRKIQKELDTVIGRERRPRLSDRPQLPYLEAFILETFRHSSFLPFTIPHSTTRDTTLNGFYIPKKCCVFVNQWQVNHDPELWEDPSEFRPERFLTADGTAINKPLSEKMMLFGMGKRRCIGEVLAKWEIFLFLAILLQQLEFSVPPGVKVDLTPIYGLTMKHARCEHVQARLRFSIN

Set 1
Structure (SMILES): Cc1ccc(O)c(C)c1-c1cnc2[nH]c(-c3cnc(N4CCC(CN5CCN(c6ccc(NC7CCC(=O)NC7=O)cc6F)CC5)CC4)nc3)cc2c1C#N (centres unmarked)
Target: Membrane-associated tyrosine- and threonine-specific cdc2-inhibitory kinase (PKMYT1, Homo sapiens, UniProt Q99640)
Chain of UniProt Q99640 (whole entry, looked up): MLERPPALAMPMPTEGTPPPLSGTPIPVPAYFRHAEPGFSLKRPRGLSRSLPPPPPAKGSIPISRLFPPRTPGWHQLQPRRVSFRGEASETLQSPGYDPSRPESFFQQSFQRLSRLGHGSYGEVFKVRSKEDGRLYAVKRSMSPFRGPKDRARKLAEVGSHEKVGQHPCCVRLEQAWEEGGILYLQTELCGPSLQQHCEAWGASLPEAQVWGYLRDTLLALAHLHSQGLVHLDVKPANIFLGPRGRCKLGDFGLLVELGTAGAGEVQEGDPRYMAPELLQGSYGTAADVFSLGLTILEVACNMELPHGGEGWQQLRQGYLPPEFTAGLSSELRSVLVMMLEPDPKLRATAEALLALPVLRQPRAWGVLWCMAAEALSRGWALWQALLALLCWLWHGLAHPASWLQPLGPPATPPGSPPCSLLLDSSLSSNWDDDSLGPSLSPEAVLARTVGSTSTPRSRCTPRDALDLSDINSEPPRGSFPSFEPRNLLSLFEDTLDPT
test	setting	inhibition [%]
–	0.03704 µM	89.3
–	1 µM	101
–	5.1e-05 µM	0.608
–	0.00046 µM	2.83
–	0.01235 µM	75.1
–	0.1111 µM	96.5
–	0.00412 µM	44.7
cell-free assay, inhibitor, TR-FRET	37.04 nM	88
–	0.000152 µM	-3.74
cell-free assay, inhibitor, TR-FRET	4.12 nM	45.9

Set 2 — effect on: thermal unfolding; technique: differential scanning fluorimetry; concentration: 5.5 µM; reading: higher = more unfolded
Compound: C[C@@H]1CN(c2ccc(-c3cc(C(=O)NCCOCCOCCOCCOCCOCCOCCNC(=O)/C=C/c4[nH]cc(C(=O)N[C@@H](CC(N)=O)c5ccc(F)c(Cl)c5)c4-c4ccc(Cl)cc4F)ccc3F)cc2NC(=O)c2ccc(F)cc2C(F)(F)F)C[C@H](C)N1C
DCAF1: DDB1- and CUL4-associated factor 1 (DCAF1, Homo sapiens, UniProt Q9Y4B6)
Chain of UniProt Q9Y4B6 (whole entry, looked up): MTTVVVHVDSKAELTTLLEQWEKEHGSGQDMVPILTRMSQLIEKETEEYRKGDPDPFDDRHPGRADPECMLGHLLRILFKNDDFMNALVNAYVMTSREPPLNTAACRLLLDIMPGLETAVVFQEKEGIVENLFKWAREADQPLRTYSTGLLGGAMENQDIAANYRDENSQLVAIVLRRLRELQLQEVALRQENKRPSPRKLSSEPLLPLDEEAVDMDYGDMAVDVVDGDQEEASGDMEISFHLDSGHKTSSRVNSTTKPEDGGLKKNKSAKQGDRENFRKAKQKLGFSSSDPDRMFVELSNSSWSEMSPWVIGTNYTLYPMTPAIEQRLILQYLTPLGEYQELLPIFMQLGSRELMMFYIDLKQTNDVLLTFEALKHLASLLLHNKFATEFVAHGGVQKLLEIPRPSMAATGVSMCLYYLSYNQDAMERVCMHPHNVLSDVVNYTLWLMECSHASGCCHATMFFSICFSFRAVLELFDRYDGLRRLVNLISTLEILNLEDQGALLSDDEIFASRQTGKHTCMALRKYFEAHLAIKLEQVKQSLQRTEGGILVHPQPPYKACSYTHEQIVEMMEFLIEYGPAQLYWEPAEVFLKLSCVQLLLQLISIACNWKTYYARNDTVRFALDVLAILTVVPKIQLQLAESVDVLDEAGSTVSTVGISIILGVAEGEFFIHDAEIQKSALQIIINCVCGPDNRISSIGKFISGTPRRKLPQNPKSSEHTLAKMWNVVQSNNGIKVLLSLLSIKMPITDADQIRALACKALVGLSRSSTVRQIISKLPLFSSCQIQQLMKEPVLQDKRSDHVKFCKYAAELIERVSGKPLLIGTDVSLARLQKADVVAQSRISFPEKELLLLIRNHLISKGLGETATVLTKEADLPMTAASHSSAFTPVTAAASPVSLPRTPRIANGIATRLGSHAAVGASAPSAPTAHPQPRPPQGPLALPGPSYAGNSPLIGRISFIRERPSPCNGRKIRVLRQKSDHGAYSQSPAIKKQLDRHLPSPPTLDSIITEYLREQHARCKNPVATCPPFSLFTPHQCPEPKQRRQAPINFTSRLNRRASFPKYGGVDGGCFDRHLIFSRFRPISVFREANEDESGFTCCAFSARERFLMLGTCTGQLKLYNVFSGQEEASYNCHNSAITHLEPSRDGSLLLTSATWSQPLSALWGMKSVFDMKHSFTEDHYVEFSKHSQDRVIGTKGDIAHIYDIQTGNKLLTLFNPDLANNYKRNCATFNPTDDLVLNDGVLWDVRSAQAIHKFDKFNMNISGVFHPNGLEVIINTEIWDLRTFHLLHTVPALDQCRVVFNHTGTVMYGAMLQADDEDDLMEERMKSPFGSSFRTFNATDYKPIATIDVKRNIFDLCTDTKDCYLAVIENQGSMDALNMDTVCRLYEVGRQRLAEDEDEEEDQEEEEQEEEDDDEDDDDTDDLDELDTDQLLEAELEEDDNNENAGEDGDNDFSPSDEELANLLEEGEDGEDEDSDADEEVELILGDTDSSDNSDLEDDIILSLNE
WDR5: WD repeat-containing protein 5 (WDR5, Homo sapiens, UniProt P61964)
target	setting	SYPRO Orange fluorescence [a.u.]
DCAF1	38.6 °C	11000
DCAF1	73.41 °C	45400
DCAF1	73.61 °C	45200
WDR5	33.4 °C	13800
DCAF1	39 °C	11100
DCAF1	53.41 °C	23100
DCAF1	77.81 °C	41400
WDR5	85.01 °C	62100
DCAF1	44.6 °C	14400
DCAF1	66.41 °C	52300
WDR5	77.81 °C	59700

Set 3 — mode: inhibitor
SMILES: NC/C(=C\F)COc1cccc(Cn2c(=S)[nH]c(=O)c3[nH]cnc32)c1
CYP2B6: Cytochrome P450 2B6 (CYP2B6, Homo sapiens, UniProt P20813)
Chain of UniProt P20813 (whole entry, looked up): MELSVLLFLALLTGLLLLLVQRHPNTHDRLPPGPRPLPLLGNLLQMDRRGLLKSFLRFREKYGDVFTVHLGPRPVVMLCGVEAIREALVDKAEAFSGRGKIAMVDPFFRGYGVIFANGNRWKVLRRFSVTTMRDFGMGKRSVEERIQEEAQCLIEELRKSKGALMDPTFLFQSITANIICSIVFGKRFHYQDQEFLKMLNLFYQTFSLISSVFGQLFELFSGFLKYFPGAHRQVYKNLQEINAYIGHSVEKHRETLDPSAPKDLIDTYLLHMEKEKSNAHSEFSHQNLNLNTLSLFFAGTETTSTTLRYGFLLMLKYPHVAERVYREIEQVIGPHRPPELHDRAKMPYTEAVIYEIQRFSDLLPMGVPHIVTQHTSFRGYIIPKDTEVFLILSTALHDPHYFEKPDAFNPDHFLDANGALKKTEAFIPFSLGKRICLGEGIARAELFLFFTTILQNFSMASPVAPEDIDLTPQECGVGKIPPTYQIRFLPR
target	setting	remaining activity
CYP2B6	30 µM	56.6% and 59.2%
CYP2B6	3.33 µM	71.2% and 61.7%
Cytochrome P450 2C9 (CYP2C9, Homo sapiens, UniProt P11712)	0.37 µM	105% and 112%
Cytochrome P450 1A2 (CYP1A2, Homo sapiens, UniProt P05177)	30 µM	60.5% and 76.1%

Further values, each from its own experiment
Compound	test	system	setting	measurement	result
CCN1/C(=C/C=C2\CCCC(/C=C/C3=[N+](CC)c4ccccc4C3(C)C)=C2NCCCCCCCCN2CCC(Nc3nc4ccccc4n3Cc3ccc(F)cc3)CC2)C(C)(C)c2ccccc21	dynamic light scattering	PBS	pH 5.0	particle diameter	745 nm

Some of these lines once more (further values, each from its own experiment):
Compound	test	system	setting	measurement	result
CCN1/C(=C/C=C2\CCCC(/C=C/C3=[N+](CC)c4ccccc4C3(C)C)=C2NCCCCCCCCN2CCC(Nc3nc4ccccc4n3Cc3ccc(F)cc3)CC2)C(C)(C)c2ccccc21	dynamic light scattering	PBS	pH 5.0	particle diameter	745 nm
